Results collected from several papers.
Parts stem from different laboratories: compare values within a part only. ± gives the spread as reported.
Chain of UniProt P21675 (whole entry, unmodified, looked up): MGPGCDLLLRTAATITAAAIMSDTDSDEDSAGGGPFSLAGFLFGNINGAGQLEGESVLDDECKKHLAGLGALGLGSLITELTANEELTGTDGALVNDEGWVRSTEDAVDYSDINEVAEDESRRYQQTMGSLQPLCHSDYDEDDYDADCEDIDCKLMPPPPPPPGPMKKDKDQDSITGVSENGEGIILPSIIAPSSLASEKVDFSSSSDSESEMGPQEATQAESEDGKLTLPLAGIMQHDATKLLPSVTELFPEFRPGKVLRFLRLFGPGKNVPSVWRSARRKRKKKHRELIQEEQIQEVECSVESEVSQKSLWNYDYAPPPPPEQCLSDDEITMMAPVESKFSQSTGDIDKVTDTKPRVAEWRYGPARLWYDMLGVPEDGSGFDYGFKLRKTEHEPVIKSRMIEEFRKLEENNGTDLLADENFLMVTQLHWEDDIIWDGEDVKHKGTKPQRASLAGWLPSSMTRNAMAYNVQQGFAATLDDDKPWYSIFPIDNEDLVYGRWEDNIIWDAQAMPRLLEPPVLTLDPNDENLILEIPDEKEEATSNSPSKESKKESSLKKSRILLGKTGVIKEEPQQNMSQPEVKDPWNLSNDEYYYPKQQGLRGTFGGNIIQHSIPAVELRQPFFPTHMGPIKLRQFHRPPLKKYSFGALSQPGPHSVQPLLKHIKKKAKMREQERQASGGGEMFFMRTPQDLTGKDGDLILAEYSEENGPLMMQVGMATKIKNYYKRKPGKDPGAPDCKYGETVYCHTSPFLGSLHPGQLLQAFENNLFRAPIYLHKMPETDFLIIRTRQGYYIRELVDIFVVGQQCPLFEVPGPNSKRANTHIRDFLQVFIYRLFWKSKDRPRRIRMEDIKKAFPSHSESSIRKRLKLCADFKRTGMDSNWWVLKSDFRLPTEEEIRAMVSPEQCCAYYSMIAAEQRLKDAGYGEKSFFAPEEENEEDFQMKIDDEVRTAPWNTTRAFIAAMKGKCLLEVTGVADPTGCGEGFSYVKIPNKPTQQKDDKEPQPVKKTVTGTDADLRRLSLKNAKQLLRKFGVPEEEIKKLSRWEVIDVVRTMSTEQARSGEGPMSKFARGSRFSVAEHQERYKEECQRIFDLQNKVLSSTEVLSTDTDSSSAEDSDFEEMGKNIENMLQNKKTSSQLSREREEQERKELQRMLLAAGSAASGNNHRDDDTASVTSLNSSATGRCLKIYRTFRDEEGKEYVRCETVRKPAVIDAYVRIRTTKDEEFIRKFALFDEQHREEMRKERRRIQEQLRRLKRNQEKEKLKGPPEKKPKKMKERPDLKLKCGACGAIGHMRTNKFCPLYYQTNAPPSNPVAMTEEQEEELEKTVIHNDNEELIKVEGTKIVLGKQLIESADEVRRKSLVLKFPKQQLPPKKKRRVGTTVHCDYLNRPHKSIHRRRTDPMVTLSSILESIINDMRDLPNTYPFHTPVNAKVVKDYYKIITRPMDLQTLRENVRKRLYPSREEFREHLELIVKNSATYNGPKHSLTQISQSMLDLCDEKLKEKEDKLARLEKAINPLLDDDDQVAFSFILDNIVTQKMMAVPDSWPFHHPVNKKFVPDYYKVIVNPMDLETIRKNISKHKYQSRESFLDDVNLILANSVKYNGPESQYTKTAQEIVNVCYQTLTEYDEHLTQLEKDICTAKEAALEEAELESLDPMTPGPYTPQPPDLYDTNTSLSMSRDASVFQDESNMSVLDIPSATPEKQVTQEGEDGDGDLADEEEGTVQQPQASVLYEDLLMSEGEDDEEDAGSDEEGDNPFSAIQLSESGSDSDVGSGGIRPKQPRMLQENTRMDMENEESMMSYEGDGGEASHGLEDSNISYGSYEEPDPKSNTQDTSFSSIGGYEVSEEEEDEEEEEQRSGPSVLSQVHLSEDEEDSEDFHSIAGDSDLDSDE
Chain of UniProt O00519 (whole entry, looked up): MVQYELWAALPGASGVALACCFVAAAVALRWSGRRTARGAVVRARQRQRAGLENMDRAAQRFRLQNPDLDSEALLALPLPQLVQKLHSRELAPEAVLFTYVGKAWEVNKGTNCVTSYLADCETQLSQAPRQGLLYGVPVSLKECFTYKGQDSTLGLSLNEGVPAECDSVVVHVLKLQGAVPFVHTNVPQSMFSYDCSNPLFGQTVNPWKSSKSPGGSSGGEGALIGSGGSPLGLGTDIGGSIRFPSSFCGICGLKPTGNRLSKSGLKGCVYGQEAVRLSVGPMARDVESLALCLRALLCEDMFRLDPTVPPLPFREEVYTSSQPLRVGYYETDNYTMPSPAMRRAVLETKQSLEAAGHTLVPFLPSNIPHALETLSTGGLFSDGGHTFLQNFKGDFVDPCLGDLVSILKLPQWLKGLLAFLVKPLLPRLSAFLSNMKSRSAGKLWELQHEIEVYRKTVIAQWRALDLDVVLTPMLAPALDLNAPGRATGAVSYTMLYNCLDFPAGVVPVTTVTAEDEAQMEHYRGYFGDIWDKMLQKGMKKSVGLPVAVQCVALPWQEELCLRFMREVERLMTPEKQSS
Chain of UniProt P34913 (whole entry, looked up): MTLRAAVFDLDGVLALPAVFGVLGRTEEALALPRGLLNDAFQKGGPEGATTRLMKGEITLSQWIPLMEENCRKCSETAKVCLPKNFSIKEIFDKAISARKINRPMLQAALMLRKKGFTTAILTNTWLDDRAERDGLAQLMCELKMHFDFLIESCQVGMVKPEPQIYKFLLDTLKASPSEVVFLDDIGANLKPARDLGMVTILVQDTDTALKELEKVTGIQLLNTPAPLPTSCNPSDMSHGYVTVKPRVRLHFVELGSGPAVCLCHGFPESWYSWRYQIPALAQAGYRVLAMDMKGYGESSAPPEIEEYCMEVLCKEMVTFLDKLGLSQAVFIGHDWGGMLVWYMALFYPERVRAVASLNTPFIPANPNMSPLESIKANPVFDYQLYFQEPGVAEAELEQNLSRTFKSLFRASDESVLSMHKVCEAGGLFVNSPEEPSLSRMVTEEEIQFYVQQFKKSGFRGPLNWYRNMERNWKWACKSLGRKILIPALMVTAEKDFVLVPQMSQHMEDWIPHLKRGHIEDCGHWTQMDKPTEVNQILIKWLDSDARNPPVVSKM

Series 1 — endpoint: GI50
Structure (SMILES): Cc1cc(OCc2nnc(SC3CCCC3)n2-c2cccnc2)ccc1-c1ccc(S(C)(=O)=O)cc1
cell line = NCI-H23; result = 97.1 nM
cell line = K562; result = 210 nM
cell line = OVCAR-5; result = 1820 nM
cell line = NCI-H322M; result = 2270 nM
cell line = ACHN; result = 1110 nM

Other studies, line by line
SMILES = O=C(Nc1ccc(-c2cnc3ccccc3c2)cc1)C1CCN(Cc2cccnc2)CC1; target or system = Fatty-acid amide hydrolase 1 (FAAH, Homo sapiens, UniProt O00519); endpoint = IC50; result = 198 nM
SMILES = N#Cc1ccc(-c2csc(CNC(=O)C34CC(CN(C(=O)COCCF)C3)C4)n2)cc1; test system = Sprague Dawley rats male, plasma; setting = oral, 3 mg/kg; endpoint = Cmax; result = 2500 nM
SMILES = Cc1ccc(S(=O)(=O)Nc2c(N3CCC(NC(=O)Nc4ccc(F)c(C)c4)CC3)c(=O)c2=O)cc1; target or system = Bifunctional epoxide hydrolase 2 (EPHX2, Homo sapiens, UniProt P34913); endpoint = IC50; result = 82.7 ± 7.9 nM
SMILES = C#Cc1cccc(Nc2ncnc3cc(OCCOC)c(OCCOC)cc23)c1; target or system = HepG2; test = MTT; setting = 1.6 µg/mL, maintenance medium, 2% serum; endpoint = viability; result = 57%
SMILES = CC[C@@H]1C(=O)N(C)c2cnc(Nc3ccc(C(=O)NC4CCN(C)CC4)cc3OC)nc2N1C1CCCC1; target or system = Transcription initiation factor TFIID subunit 1, bromodomain 1 (TAF1, Homo sapiens, UniProt P21675); test = thermal stabilisation, thermal shift; setting = 10 µM; endpoint = ΔTm; result = -0.49 ± 0.04 °C

Repeated from above (series 1):
cell line = OVCAR-5; result = 1820 nM
cell line = NCI-H322M; result = 2270 nM
